Published values pooled from the literature.
Numbered parts are unrelated; each lists some results of a single study.

Sample 1
Cell line: HEK-293T/ACE2
Tested at: 10 µM
Time: 16 h
Baseline: vehicle
Quantity: viability
SMILES = O=C(O[C@H]1C[C@H]2CC[C@@H](C1)[N+]21CCCC1)C(O)(c1ccccc1)c1ccccc1; value = 98.4%
SMILES = CCCNC(C)C(=O)Nc1c(C)csc1C(=O)OC (stereo not drawn); value = 97%
SMILES = CN(C)[C@@H]1C(O)=C(C(N)=O)C(=O)[C@@]2(O)C(O)=C3C(=O)c4c(O)cccc4[C@@](C)(O)[C@H]3C[C@@H]12; value = 99.7%

Sample 2
Target: RNA binding protein fox-1 homolog 2, RRM domain, GST-SBP tag (RBFOX2, Homo sapiens, UniProt O43251-10, residues 100-194)
Method: RNA Bind-n-Seq
Molecule type: RNA
Sample: in vitro
Tested at: 365 nM
Setting: natural RNA segment, single round, ends assumed
Baseline: no-protein control
Reading: higher = stronger binding
Quantity: RBNS enrichment (R)
All sequences stand within: GGGAGUUCUACAGUCCGACGAUC … UGGAAUUCUCGGGUGCCAA
Target sequence (chain): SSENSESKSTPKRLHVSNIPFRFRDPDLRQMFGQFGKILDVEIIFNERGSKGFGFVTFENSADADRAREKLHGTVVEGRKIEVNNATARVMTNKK
Oligonucleotide = GCUGGGACCUAUAACGUCUUAGGUGCAACAAGGACCCUACCAGAGCUCCUGGGUGGCUUUGUGUGAGGGGACUGAACGCAGACAAACCACAGCCUGCUUCUAAUACCUUC; value = 0.356
Oligonucleotide = AAAAACCUCUAUUUAGAUUUCAAUAAUCAGAGAAGUGUAAAAUAAAACAGAUUAUAUUGUACUUGACCUUUAUGUCUUUAAAGAUAGUUAAUGCAACCCUGAGGCUUGGG; value = 0.468
Oligonucleotide = CAAUGUUGUGUAUAAAUGGGACACUUUGCCCUCUACCACCUCCCCUUUGGUUGUAUGAUUUUCUUCUUUUUUAAUGACUCCUGGAAGCAGUGCCCCUUCAGAGCUGGCUG; value = 0.587
Oligonucleotide = AGCUCUGAGCUACAUGAAGUAAUGAGCAGAGAUGAGUACUCACAGUCCAUCACCAGGCCAGCUUCUCCUCAGCCCUCUGUUCUUGAAGGGGUGUGCUGGGGCAAGCAUCC; value = 0.308
Oligonucleotide = UGUUAACAAUGCAGUAGCCAGCACGUUCGAGGCGGUUUCCAGGAAGAGUGUGCUUGUCAUCUGCCACUUUCGGGAGGGUGGAUCCACUGUGCAGGAGUGGCCGGGGAAGC; value = 0.863
Oligonucleotide = AUAUUCGGGGGAGUAAGGAAAUAAGUUAUGUUUAAUAAUAGCUUAAGAUGACCAGCAAUGCCUGUAGAAGGCUUUGUCCGUUUUUGGCAGAAGGCCUAGGGCAUCGAAAA; value = 0.519
Oligonucleotide = ACAGAAACGCCUUAAGACACUAUGUUUGGGAAUAUAGGAAACUAUGUGUGUCCCAAGGAAAUCCCUGUAAAUUUAACUCACCUACAAAAGGCUUUUUCCCCGCCUUUGGU; value = 0.414
Oligonucleotide = GAUUUUCUCCCUUUUGUUUUGCUUUUAUUUUCAUGCUACUAACAUAUCUUCAGAAGGAAAUGGCAACUAGUAGAUCAGUAAAAUUACGAAAACGAUGCCUGCAAAAUUUG; value = 0.53

Sample 3
Target: Replicase polyprotein 1ab, main protease (rep, Severe acute respiratory syndrome coronavirus 2, UniProt P0DTD1)
Observed: enzyme activity
Mode: inhibitor
Tested at: 20 µM
Quantity: inhibition
SMILES = O=C(O)/C(S)=C/c1ccc(I)cc1; value = -14.6%
SMILES = c1cc[n+]2c(c1)[S][Zn]1([O]2)[O][n+]2ccccc2[S]1; value = 99.3%
SMILES = C[n+]1c2cc(N)ccc2cc2ccc(N)cc21; value = -1.1%

Sample 4
Target: Replicase polyprotein 1ab, nsp13 helicase (rep, Severe acute respiratory syndrome coronavirus 2, UniProt P0DTD1)
Mode: inhibitor
Tested at: 20 µM
Quantity: inhibition
SMILES = CCOC(=O)CCC(=O)O[C@H]1[C@H](O[C@@H]2[C@@H](C)[C@H](O[C@H]3C[C@@](C)(OC)[C@@H](O)[C@H](C)O3)[C@@H](C)C(=O)O[C@H](CC)[C@@](C)(O)[C@H](O)[C@@H](C)C(=O)[C@H](C)C[C@@]2(C)O)O[C@H](C)C[C@@H]1N(C)C; value = 3.74%
SMILES = NS(=O)(=O)NCCNc1nonc1/C(=N/O)Nc1ccc(F)c(Br)c1; value = -2.58%
SMILES = NC(=O)CCCCn1ccc(NC(N)=NCC(F)(F)F)n1; value = 4.45%
SMILES = CN(C)CCC(O)(c1ccccc1)c1ccccc1Cl (stereo not drawn); value = 7.27%
SMILES = CCOCCn1c(C2CCN(CCc3ccc(C(C)(C)C(=O)O)cc3)CC2)nc2ccccc21; value = 3.88%
SMILES = OC[C@@H](O)[C@@H](O[C@@H]1O[C@H](CO)[C@H](O)[C@H](O)[C@H]1O)[C@H](O)[C@@H](O)CO; value = 2.66%
SMILES = C[C@@H]1CC2C3CCC4=CC(=O)C=C[C@]4(C)[C@@]3(F)[C@@H](O)C[C@]2(C)[C@H]1C(=O)CO (stereo partly drawn); value = 1%
SMILES = Cc1nnc2ccc(-c3cccc(C(F)(F)F)c3)nn12; value = 0.38%
SMILES = N=C(N)NCCSSCCN=C(N)N; value = 5.35%
SMILES = CC1(C)O[C@@H]2C[C@H]3[C@@H]4CCC5=CC(=O)C=C[C@]5(C)[C@@]4(F)[C@@H](O)C[C@]3(C)[C@]2(C(=O)CO)O1; value = 4.62%
SMILES = CCCCCCCCCCCC[N+](C)(C)CCOc1ccccc1; value = 8.41%
SMILES = O=S(=O)(O)CCS; value = -0.54%
SMILES = Cc1cc(C)c(NC(=O)N(Cc2ccc3c(c2)Cc2ccccc2-3)C2CCCCCC2)c(C)c1; value = 17.1%
SMILES = COc1ccc(C(=O)Nc2sc3c(c2C(N)=O)CCCC3)cc1OC; value = 3.03%
SMILES = Cc1ncc([N+](=O)[O-])n1CC(O)CN1CCOCC1 (stereo not drawn); value = 9.56%
SMILES = CCCCc1nn(-c2ccccc2C(F)(F)F)c(=O)n1Cc1ccc(-c2ccccc2S(=O)(=O)NC(=O)c2sccc2C)cc1; value = 10.9%
SMILES = CC1=C(/C=C/C(C)=C/C=C/C(C)=C/C(=O)O)C(C)(C)CCC1; value = 22.7%
SMILES = Nc1nc(=O)c2nc(CNc3ccc(C(=O)N[C@@H](CCC(=O)O)C(=O)O)cc3)cnc2[nH]1; value = -1.84%
SMILES = O=C(N[C@@H](Cc1c[nH]c2ccccc12)C(=O)O)c1ccc(Cl)cc1; value = 4.12%
SMILES = CC(=O)[C@@]12O[C@](C)(c3ccccc3)O[C@@H]1C[C@H]1[C@@H]3CCC4=CC(=O)CC[C@]4(C)[C@H]3CC[C@@]12C; value = 7.01%
SMILES = O=C(O)C(=O)CBr; value = 40.2%
SMILES = CCC(=O)N1CCN(c2ccc(-n3c(=O)ccc4cnc5ccc(-c6cnc7ccccc7c6)cc5c43)cc2C(F)(F)F)CC1; value = 1.54%
SMILES = CCCC(=O)OCOC(=O)C1=C(C)NC(C)=C(C(=O)OC)C1c1cccc(Cl)c1Cl (stereo not drawn); value = 3.86%
SMILES = O=C(Nc1ccc([N+](=O)[O-])cc1Cl)c1cc(Cl)ccc1O; value = 10.3%

Sample 5
Target: PABPC1L2, full length, GST fusion (mouse, UniProt A0ABA7IW68)
Method: RNAcompete
Molecule type: RNA
Sample: in vitro
Tested at: 20 nM
Setting: 7-mer, probes averaged, single round
Baseline: mean of 7-mers
Reading: higher = stronger binding
Quantity: 7-mer Z-score
Residues (chain): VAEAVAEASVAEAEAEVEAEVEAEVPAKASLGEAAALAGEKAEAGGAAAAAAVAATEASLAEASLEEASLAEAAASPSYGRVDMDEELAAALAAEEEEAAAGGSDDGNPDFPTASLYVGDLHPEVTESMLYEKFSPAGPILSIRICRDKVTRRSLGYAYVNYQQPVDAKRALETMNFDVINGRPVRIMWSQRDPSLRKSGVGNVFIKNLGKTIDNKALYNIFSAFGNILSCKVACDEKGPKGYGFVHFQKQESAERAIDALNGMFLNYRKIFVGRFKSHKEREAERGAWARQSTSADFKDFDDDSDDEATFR
Oligonucleotide = GAUGAUA; value = -0.0554
Oligonucleotide = UCUUGCU; value = -0.545
Oligonucleotide = GUCGGAG; value = -0.101
Oligonucleotide = AGUGCGG; value = 0.245
Oligonucleotide = UUUAGAU; value = 0.0152

Sample 6
Target: Phosphate system positive regulatory protein PHO4, full length, GST-tagged (PHO4, Saccharomyces cerevisiae, UniProt P07270, residues 1-312)
Sequence of UniProt P07270 (whole entry, looked up): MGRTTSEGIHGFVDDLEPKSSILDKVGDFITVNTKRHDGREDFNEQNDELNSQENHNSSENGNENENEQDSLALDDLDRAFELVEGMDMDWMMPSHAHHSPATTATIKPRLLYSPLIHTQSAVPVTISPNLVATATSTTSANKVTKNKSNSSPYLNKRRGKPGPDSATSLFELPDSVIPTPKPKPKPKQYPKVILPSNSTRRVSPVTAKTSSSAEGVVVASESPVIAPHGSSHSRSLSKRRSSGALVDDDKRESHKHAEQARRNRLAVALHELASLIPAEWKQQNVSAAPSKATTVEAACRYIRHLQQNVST
Method: competition protein-binding microarray
Molecule type: double-stranded DNA, one strand shown
Sample: in vitro
Tested at: 2 µM
Setting: whole 60-bp probe, lowest competitor level
Together with: Cbf1 competitor, 0.05 µM
Reading: higher = stronger binding
Quantity: fluorescence intensity
All sequences stand within: … GTCTTGATTCGCTTGACGCTGCTG
Oligonucleotide = CATACCCAACCTTGAACGGTGGGTGAAGATATTTGT; value = 4170 a.u.
Oligonucleotide = CTAACGAAGGTTTGCAAGGTGGGTGACAAGCCAAGT; value = 4170 a.u.
Oligonucleotide = CATACCCAACCTTGATTAGTGGGTGAAGATATTTGT; value = 3760 a.u.
Oligonucleotide = GCCGTTTTGCTCCGGGTCGTGCCGACGTAAATCCAT; value = 8390 a.u.
Oligonucleotide = CCGTCAGATAATATATCCCCGTATAGGTTTGGTGCC; value = 3880 a.u.
Oligonucleotide = AAATTACTAAGTTGTCACGACACTTACCCCGTATGA; value = 4900 a.u.
Oligonucleotide = TATTGAAAGTTTGCGAACGTGAAGTAAAACTGCAAA; value = 7130 a.u.
Oligonucleotide = AGCACCACAGCGTACCATGTGCGCTACGAGGCCTCA; value = 11200 a.u.
